Measured values pooled from the literature.
Each numbered part is a random draw from the data of one study; scales do not carry over between parts. Positions count from the first letter of the parent shown.

Block 1 — technique: universal PBM; form: double-stranded DNA, one strand shown; matrix: in vitro; concentration: not given; direction: higher = stronger binding
Target: Sal-like protein 4, full length isoform B (SALL4, Homo sapiens, UniProt Q9UJQ4-2, residues 1-616)
Setting: 8-mer, flanks averaged, mean of replicates
| Oligonucleotide | E-score |
| --- | --- |
| AACTCCAC | 0.0637 |
| AAGAGGCA | -0.0887 |
| GGACTGAC | -0.307 |
| ATAACCTA | 0.279 |
| CCCCCGCC | -0.221 |
| CTAGGATC | -0.163 |
| CCGCTTCC | -0.203 |
| ATGGTGTC | 0.0537 |

Block 2 — technique: RNA Bind-n-Seq; form: RNA; matrix: in vitro; concentration: 1 µM; setting: whole 134-nt RNA, ends assumed; added: 150 mM KCl; relative to: input library; direction: higher = stronger binding
Target: Ras GTPase-activating protein-binding protein 1, C-terminal RGG region (G3BP1, Homo sapiens, UniProt Q13283)
Sequence of UniProt Q13283 (whole entry, looked up): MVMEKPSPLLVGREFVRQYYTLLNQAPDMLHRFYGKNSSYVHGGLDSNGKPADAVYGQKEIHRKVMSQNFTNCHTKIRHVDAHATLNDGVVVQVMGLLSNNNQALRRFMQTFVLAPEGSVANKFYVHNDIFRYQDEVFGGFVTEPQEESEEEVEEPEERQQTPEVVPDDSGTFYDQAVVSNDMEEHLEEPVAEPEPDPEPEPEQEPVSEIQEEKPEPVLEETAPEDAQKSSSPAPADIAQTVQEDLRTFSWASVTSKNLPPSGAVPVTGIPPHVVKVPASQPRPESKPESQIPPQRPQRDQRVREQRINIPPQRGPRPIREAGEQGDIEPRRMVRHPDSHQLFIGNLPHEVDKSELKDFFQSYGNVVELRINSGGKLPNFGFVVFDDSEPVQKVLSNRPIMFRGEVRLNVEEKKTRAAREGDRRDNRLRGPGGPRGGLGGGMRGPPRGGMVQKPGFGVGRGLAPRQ
Constant ends, left off below: GGGAGUUCUACAGUCCGACGAUC … UGGAAUUCUCGGGUGUCAAGG
| Oligonucleotide | log2 enrichment |
| --- | --- |
| AGUCCUGUGCUACACAUCGUAUGUACCGAAUCAAACCCAAAUUUUUUUAAAUUUAAAAAAGUAUUAUGUUACGCCGUUCGGAUCUGCACU | -1.34 |
| AAGUCCUGUGCUACACAUCGUAUGUACCGAAUCGGAAAAAGGUUUUUGGAAAAAGGAAAGUAUUAUGUUACGCCGUUCGGAUCUGCACUU | -2.24 |
| GUCCUGUGCUACACAUCGUAUGUACCGAAUCGGGAAAAAGGAAAAAGGGAAAAAGGGGAAAGUAUUAUGUUACGCCGUUCGGAUCUGCAC | -1.27 |
| UGGGAGGUGGAUUUUGUUUAUUUUUUUAGCUCAUAUCCAGGGGUGGGAAUUUUUUUUUAAUAUGUGUCAUGAAUAAAGUUGUUUUUGAAA | 3.29 |
| UGGGAGGUGGAUUUUGUUAAUUUUUUUAGCUCAUUUCCAGGGGUGGGAAUUUUUUUUUAAUAUGUGUCAUGAAUAAAGUUGUUUUUGAAA | 1.75 |
| GAGAGCGAGGUGGCUUCAAUAAGCCUGGUGGUAAGUUUUUGAGUAUUACCAUAGAUAGUGUUUAAAAAAAAAUGCAGUCAGUUUUUAGAA | -1.35 |
| GUCCUGUGCUACACAUCGUAUGUACCGAAUCGGGAAAAAGGGAAAAAGGGUUUUUGGGAAAGUAUUAUGUUACGCCGUUCGGAUCUGCAC | -0.186 |
| GCAGGAAGUAAAAACAAAUGGAAAUGCUUCGGAUAGUGGCAGGGGUGGGGGUAGCUAAGGAAAGGGUGGGAUGGGAGUGGGUAAAGAGUU | 0.539 |

Block 3 — target: DBP, bZIP domain (human); technique: DHFR protein complementation; matrix: yeast; relative to: wild-type JUN-FOS pair; direction: higher = stronger binding
Setting: single substitutions, most at no-binding floor
Starting sequence: JUN, bZIP domain (human); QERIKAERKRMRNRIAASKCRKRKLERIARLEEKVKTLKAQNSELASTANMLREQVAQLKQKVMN; partner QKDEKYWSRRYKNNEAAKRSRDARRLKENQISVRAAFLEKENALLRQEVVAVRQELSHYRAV
| Variant | binding fitness [natural log] |
| --- | --- |
| A29H | -1.03 |
| A57E | -1.37 |
| E44W | -1.43 |
| V56K | -1.6 |
| Q55T | -1.55 |
| N42H | -1.44 |
| T37C | -1.51 |
| T37M | -1.49 |

Other studies, line by line
| Molecule | target | test | test system | conditions | endpoint | value |
| --- | --- | --- | --- | --- | --- | --- |
| VKINIFPLY | HLA class I histocompatibility antigen, A alpha chain, allele A*80:01 (Homo sapiens, UniProt P04439) | peptide-MHC binding | peptide | concentration not given | binding | inactive |
